Assay results from different studies.
A part holds a random share of what one study measured. Several values in a cell are separate wells, animals, samples, runs or records.
Chain of UniProt Q96SW2 (whole entry, looked up): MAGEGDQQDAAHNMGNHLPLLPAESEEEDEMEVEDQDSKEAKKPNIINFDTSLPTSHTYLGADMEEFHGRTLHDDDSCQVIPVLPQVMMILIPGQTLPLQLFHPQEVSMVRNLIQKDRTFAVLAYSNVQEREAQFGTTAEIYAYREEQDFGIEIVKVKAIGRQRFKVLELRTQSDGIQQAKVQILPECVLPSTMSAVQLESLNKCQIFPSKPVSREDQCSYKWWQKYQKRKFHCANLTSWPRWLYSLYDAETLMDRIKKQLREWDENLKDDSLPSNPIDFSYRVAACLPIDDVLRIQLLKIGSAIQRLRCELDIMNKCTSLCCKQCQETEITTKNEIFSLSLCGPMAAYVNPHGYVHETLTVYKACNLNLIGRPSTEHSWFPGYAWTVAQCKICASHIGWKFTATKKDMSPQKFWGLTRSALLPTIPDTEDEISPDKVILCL
Chain of UniProt Q9Y6M4 (whole entry, looked up): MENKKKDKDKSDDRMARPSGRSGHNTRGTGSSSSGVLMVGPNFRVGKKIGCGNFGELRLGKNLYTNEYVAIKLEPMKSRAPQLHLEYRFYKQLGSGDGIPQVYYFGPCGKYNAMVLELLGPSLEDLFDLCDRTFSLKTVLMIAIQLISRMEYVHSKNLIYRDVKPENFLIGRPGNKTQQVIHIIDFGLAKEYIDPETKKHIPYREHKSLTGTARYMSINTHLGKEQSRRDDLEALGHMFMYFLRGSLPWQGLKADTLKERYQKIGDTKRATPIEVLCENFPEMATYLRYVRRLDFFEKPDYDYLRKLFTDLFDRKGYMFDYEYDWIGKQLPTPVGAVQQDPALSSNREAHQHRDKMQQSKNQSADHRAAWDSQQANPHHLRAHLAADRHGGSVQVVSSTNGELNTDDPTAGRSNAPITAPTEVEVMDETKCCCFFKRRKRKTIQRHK
Chain of UniProt P33981 (whole entry, looked up): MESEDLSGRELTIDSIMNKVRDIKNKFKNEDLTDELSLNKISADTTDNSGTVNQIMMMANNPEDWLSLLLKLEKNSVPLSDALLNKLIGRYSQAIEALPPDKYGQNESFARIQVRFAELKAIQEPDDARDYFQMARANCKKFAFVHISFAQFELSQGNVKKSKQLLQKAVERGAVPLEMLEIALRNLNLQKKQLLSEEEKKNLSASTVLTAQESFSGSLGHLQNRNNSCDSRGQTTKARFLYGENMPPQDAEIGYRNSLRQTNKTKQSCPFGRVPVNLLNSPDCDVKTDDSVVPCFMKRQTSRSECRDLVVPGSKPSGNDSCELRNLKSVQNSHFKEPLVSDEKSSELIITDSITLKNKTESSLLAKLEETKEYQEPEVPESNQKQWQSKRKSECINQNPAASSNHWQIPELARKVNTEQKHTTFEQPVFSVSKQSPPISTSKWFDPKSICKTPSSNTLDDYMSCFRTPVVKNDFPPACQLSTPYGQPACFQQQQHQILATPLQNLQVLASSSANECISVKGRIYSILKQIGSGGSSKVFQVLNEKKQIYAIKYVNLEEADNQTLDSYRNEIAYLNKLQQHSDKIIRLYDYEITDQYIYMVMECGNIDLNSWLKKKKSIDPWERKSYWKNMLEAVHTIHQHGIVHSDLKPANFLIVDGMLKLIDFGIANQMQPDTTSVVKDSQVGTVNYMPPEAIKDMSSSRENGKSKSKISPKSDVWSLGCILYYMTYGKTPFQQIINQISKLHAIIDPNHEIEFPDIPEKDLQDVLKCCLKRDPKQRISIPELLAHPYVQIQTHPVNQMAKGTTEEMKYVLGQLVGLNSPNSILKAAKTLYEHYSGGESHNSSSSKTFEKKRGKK
Chain of UniProt P23443 (whole entry, looked up): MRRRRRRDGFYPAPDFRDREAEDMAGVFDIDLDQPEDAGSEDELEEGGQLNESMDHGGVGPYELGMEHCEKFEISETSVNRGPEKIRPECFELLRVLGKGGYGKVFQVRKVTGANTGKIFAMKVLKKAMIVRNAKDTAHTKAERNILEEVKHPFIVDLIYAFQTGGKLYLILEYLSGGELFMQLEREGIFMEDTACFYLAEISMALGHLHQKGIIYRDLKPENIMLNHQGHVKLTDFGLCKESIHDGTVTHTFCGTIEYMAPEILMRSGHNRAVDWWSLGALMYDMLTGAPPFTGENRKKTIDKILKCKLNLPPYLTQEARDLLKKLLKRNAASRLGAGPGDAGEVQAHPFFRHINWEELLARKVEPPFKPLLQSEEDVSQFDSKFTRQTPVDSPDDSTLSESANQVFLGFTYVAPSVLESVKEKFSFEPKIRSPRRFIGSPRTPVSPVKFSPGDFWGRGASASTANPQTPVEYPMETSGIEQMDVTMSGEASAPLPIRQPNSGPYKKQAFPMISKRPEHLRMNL

Study 1 — read-out: thermal unfolding; technique: differential scanning fluorimetry; tested at: 5.5 µM; reading: higher = more unfolded
SMILES: C[C@@H]1CN(c2ccc(-c3cc(C(=O)NCCOCCOCCOCCOCCNC(=O)Cn4cc(-c5[nH]cc(C(=O)N[C@@H](CC(N)=O)c6ccc(F)c(Cl)c6)c5-c5ccc(Cl)cc5F)cn4)ccc3F)cc2NC(=O)c2c[nH]c(=O)cc2C(F)(F)F)C[C@H](C)N1C
DCAF1: DDB1- and CUL4-associated factor 1 (DCAF1, Homo sapiens, UniProt Q9Y4B6)
Chain of UniProt Q9Y4B6 (whole entry, looked up): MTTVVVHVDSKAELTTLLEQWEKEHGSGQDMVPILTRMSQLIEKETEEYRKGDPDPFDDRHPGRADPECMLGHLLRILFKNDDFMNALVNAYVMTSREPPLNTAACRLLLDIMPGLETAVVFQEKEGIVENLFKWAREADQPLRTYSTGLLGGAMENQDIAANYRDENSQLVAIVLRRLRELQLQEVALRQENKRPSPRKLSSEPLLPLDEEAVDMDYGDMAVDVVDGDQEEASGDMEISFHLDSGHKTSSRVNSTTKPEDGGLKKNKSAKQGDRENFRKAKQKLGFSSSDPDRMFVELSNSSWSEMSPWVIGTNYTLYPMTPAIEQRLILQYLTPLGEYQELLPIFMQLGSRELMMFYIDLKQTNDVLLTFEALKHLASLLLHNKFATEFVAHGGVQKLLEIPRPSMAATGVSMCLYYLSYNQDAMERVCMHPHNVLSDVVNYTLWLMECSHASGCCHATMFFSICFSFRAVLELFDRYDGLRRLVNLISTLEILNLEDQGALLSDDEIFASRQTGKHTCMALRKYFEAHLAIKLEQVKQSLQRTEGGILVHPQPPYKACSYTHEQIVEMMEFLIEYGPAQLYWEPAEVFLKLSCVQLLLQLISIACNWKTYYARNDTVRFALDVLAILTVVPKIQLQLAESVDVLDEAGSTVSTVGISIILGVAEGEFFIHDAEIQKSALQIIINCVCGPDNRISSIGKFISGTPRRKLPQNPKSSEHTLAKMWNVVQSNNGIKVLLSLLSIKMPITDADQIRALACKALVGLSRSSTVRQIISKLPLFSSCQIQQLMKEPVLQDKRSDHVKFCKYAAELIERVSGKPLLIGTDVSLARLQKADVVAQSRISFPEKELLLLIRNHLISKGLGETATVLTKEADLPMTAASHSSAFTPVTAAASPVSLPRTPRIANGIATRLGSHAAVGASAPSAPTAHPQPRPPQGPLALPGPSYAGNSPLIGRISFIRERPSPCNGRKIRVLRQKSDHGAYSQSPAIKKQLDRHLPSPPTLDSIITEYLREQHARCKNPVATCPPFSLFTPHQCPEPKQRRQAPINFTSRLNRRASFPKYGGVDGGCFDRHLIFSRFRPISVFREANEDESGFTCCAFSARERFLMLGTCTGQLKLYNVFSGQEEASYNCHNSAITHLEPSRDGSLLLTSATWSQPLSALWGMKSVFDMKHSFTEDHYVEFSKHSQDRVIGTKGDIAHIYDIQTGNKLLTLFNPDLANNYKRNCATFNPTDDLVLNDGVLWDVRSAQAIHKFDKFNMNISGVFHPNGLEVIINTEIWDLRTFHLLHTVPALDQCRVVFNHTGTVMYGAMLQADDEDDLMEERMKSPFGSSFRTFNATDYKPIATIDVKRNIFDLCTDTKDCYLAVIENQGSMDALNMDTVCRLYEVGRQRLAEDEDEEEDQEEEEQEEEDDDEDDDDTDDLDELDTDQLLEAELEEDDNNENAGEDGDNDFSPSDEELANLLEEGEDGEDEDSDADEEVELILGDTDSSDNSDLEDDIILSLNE
WDR5: WD repeat-containing protein 5 (WDR5, Homo sapiens, UniProt P61964)
The “SYPRO Orange fluorescence” was 7790 a.u. (DCAF1; 27.8 °C).
WDR5; 44 °C — “SYPRO Orange fluorescence”: 14500 a.u.
For WDR5; 83.81 °C: “SYPRO Orange fluorescence” read 36200 a.u.
The “SYPRO Orange fluorescence” was 41800 a.u. (WDR5; 91.61 °C).
It gave 28100 a.u. for “SYPRO Orange fluorescence” (DCAF1; 57.81 °C).
DCAF1; 31.2 °C — “SYPRO Orange fluorescence”: 8280 a.u.
It gave 14900 a.u. for “SYPRO Orange fluorescence” (WDR5; 31.2 °C).
It gave 14500 a.u. for “SYPRO Orange fluorescence” (WDR5; 49.8 °C).
It gave 7740 a.u. for “SYPRO Orange fluorescence” (DCAF1; 27.4 °C).
WDR5; 39 °C — “SYPRO Orange fluorescence”: 14400 a.u.
WDR5; 37.4 °C — “SYPRO Orange fluorescence”: 14400 a.u.

Study 2
SMILES: Cc1ccc(O)c(C)c1-c1cnc2[nH]c(-c3cnc(N4CCC5(CC4)CC(N4CCN(c6ccc(N[C@H]7CCC(=O)NC7=O)cc6F)CC4)CO5)nc3)cc2c1C#N (single isomer, unassigned)
PKMYT1: Membrane-associated tyrosine- and threonine-specific cdc2-inhibitory kinase (PKMYT1, Homo sapiens, UniProt Q99640)
Chain of UniProt Q99640 (whole entry, looked up): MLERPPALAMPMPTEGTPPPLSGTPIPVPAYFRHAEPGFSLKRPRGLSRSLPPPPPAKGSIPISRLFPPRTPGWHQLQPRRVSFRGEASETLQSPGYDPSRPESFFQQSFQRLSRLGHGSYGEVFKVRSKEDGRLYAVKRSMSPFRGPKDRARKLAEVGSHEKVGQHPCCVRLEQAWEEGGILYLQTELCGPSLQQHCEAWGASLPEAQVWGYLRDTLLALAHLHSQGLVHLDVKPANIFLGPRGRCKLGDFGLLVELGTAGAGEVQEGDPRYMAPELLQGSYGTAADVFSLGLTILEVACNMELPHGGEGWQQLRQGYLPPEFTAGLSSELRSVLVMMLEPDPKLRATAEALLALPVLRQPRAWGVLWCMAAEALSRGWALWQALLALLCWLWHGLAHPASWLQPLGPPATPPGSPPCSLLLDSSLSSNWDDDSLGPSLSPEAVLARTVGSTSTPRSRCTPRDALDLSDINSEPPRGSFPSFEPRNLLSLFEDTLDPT
The inhibition was 61.2% (PKMYT1; enzyme activity, inhibitor; 12.35 nM).
For PKMYT1; enzyme activity, inhibitor; 4.572 nM: inhibition read 54.1%.
The inhibition was 9.88% (PKMYT1; 0.0005081 µM).
For PKMYT1; binding, HTRF; 1111.11 nM: inhibition read 101% and 98.6%.
It gave 24.8% and 21.2% for inhibition (Protein cereblon (CRBN, Homo sapiens, UniProt Q96SW2); binding; 1111.11 nM).
For PKMYT1; 0.001524 µM: inhibition read 22.2%.
It gave 79.4% for inhibition (HCC1569; automated capillary immunoblot, refers to: CDK1 phospho-Thr14; 100 nM, 8 h).
For BRAF; KINOMEscan; 1000 nM: inhibition read 86%.
For HCC1569; automated capillary immunoblot, refers to: CDK1 phospho-Thr14; 1 nM, 8 h: inhibition read -1.55%.
The inhibition was -0.5% and 1.74% (RKO; cell proliferation; 13.72 nM).
For PKMYT1; 0.04115 µM: inhibition read 92.3%.
For PKMYT1; enzyme activity, inhibitor; 1 µM: inhibition read 97.1%.
The inhibition was 12.8% and 7.26% (PKMYT1; 0.5081 nM).
It gave 98.1% for inhibition (PKMYT1; enzyme activity, inhibitor; 0.3333 µM).

Study 3 — tested at: 1 µM
SMILES: CCC1(c2cccc(-c3cn(C)nc3C)c2)C2=C(Nc3n[nH]cc31)C(F)C(C)(C)CC2=O (single isomer, unassigned)
For Ephrin type-B receptor 2 (EPHB2, Homo sapiens, UniProt P29323); kinase binding, KINOMEscan; baseline: DMSO control: remaining binding read 100%.
It gave 100% for remaining binding (Serine/threonine-protein kinase SIK3 (SIK3, Homo sapiens, UniProt Q9Y2K2); kinase binding, KINOMEscan; baseline: DMSO control).
Serine/threonine-protein kinase DCLK1 (DCLK1, Homo sapiens, UniProt O15075); binding, competition with immobilised ligand — remaining binding: 88%.
For Inhibitor of nuclear factor kappa-B kinase subunit beta (IKBKB, Homo sapiens, UniProt O14920); kinase binding, KINOMEscan; baseline: DMSO control: remaining binding read 91%.
For Cyclin-dependent kinase 14 (CDK14, Homo sapiens, UniProt O94921); kinase binding, KINOMEscan; baseline: DMSO control: remaining binding read 100%.
It gave 99% for remaining binding (Membrane-associated tyrosine- and threonine-specific cdc2-inhibitory kinase (PKMYT1, Homo sapiens, UniProt Q99640); binding, competition with immobilised ligand).
The remaining binding was 96% (Serine/threonine-protein kinase 3 (STK3, Homo sapiens, UniProt Q13188); kinase binding, KINOMEscan; baseline: DMSO control).
The remaining binding was 100% (Testis-specific serine/threonine-protein kinase 3 (TSSK3, Homo sapiens, UniProt Q96PN8); kinase binding, KINOMEscan; baseline: DMSO control).
It gave 100% for remaining binding (Myosin light chain kinase (MYLK3, Homo sapiens, UniProt Q32MK0); kinase binding, KINOMEscan; baseline: DMSO control).
For Protein kinase C iota type (PRKCI, Homo sapiens, UniProt P41743); kinase binding, KINOMEscan; baseline: DMSO control: remaining binding read 100%.
The remaining binding was 100% (Peripheral plasma membrane protein CASK (CASK, Homo sapiens, UniProt O14936); kinase binding, KINOMEscan; baseline: DMSO control).
It gave 100% for remaining binding (FLT3 ITD/D835V, human; KINOMEscan).
The remaining binding was 100% (TGF-beta receptor type-1 (TGFBR1, Homo sapiens, UniProt P36897); binding, competition with immobilised ligand).
Ribosomal protein S6 kinase beta-1 (RPS6KB1, Homo sapiens, UniProt P23443); kinase binding, KINOMEscan; baseline: DMSO control — remaining binding: 72%.
It gave 100% for remaining binding (Epidermal growth factor receptor (EGFR, Homo sapiens, UniProt P00533, T790M); kinase binding, KINOMEscan; baseline: DMSO control).
For Dual specificity protein kinase TTK (TTK, Homo sapiens, UniProt P33981); binding, competition with immobilised ligand: remaining binding read 100%.
For Casein kinase I isoform gamma-3 (CSNK1G3, Homo sapiens, UniProt Q9Y6M4); kinase binding, KINOMEscan; baseline: DMSO control: remaining binding read 100%.
Ankyrin repeat and protein kinase domain-containing protein 1 (ANKK1, Homo sapiens, UniProt Q8NFD2); kinase binding, KINOMEscan; baseline: DMSO control — remaining binding: 100%.
For Tyrosine-protein kinase ITK/TSK (ITK, Homo sapiens, UniProt Q08881); kinase binding, KINOMEscan; baseline: DMSO control: remaining binding read 100%.
Tyrosine-protein kinase receptor TYRO3 (TYRO3, Homo sapiens, UniProt Q06418); kinase binding, KINOMEscan; baseline: DMSO control — remaining binding: 99%.

Study 4 — technique: FLIPR membrane potential; cell line: CHO-BC; tested at: concentration not given; notes: unit not given; baseline: fraction of control
Target: Sodium-dependent neutral amino acid transporter B(0)AT1 (SLC6A19, Homo sapiens, UniProt Q695T7)
Chain of UniProt Q695T7 (whole entry, looked up): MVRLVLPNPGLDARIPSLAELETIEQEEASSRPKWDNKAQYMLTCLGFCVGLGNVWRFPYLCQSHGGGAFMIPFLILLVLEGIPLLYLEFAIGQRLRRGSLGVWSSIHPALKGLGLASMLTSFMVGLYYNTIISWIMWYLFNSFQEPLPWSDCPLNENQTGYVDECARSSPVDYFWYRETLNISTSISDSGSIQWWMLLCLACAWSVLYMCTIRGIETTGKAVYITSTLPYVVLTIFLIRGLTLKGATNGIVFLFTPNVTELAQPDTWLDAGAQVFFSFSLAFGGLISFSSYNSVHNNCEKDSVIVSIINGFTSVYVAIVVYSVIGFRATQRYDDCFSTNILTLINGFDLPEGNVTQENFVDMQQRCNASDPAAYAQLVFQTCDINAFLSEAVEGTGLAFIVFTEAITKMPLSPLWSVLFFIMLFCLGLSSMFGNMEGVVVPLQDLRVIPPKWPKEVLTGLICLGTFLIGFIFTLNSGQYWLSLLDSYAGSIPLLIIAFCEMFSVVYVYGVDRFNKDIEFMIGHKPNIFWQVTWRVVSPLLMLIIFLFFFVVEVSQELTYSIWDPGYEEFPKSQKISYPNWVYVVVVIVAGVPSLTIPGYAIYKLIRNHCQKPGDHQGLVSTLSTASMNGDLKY
`Cc1cc(OCC(=O)NC(C)C)ccc1Br` gave a remaining activity of 0.0929.
The remaining activity of `CC(C)NC(=O)CSc1ccc(Cl)cc1` is reported as 0.225.
`CCCNC(=O)COc1cc(C)c(Cl)c(C)c1` gave a remaining activity of 0.225.
With `CC(C)NC(=O)CSc1ccc([N+](=O)[O-])cc1` the remaining activity was 0.505.
With `Cc1cc(OCC(=O)NC(C)C)ccc1Cl` the remaining activity was 0.2.
The remaining activity of `CC(C)NC(=O)COC(c1ccccc1)c1ccccc1` is reported as 0.949.
The remaining activity of `CC(C)NC(=O)COc1cccc2ccccc12` is reported as 0.217.
The remaining activity of `Cc1cc(OCC(=O)NC(C)C)cc(C)c1I` is reported as 0.169.
`COc1ccc(SCC(=O)NC(C)C)cc1` has a remaining activity of 0.916.
The remaining activity of `Cc1cc(OCC(=O)NC(C)C)ccc1I` is reported as 0.0873.

Some of these lines once more (study 4):
With `Cc1cc(OCC(=O)NC(C)C)ccc1Cl` the remaining activity was 0.2.
The remaining activity of `CC(C)NC(=O)COC(c1ccccc1)c1ccccc1` is reported as 0.949.
The remaining activity of `CC(C)NC(=O)COc1cccc2ccccc12` is reported as 0.217.
The remaining activity of `Cc1cc(OCC(=O)NC(C)C)cc(C)c1I` is reported as 0.169.
`COc1ccc(SCC(=O)NC(C)C)cc1` has a remaining activity of 0.916.
The remaining activity of `Cc1cc(OCC(=O)NC(C)C)ccc1I` is reported as 0.0873.
